Measured values gathered from unrelated publications.
Compare with care: the assays were run in different laboratories. Several values in a cell are separate wells, animals, samples, runs or records. ± marks the error that the study gave.

C/C1=C\CC/C(C)=C/CC(C)(C)/C=C/C1 — inhibition (sodium channels; sodium current, inhibitor, whole-cell patch clamp; mouse DRG neurons; 100 µM, 5 min): 10 ± 5%
C[n+]1ccc(/C=N/NC(=O)C(=O)N/N=C/c2cc[n+](C)cc2)cc1 — ΔTm (22CTA telomeric G4-DNA antiparallel; FRET melting; 1 µM, K10 buffer, DNA 0.2 µM, together with: ds26 10 µM): 2.1 ± 2.5 °C
COc1c(Cl)cccc1Nc1c(-c2ccncc2C#C[C@@]2(C)CCCN2C(=O)/C=C/CN(C)C)[nH]c2c1C(=O)NCC2 — log2 fold change (DUSP4 human; cysteine engagement, chemoproteomic profiling, item: DUSP4 peptide 244-252; NCI-H2073; 10 µM, 2 h; reference: DMSO): 2.45
C=CC(=O)Nc1cccc(Cn2ncc3cnc(Nc4cnn(CCOC)c4)nc32)c1 — percent of control (HUNK human; binding, KINOMEscan; 100 nM; lower = stronger binding): 100%
Cc1cn(CC(=O)N(CC(=O)N[C@H]2COC[C@@H]2N(CC(=O)NCCOCCOCC(N)=O)C(=O)Cn2cnc3c(N)ncnc32)[C@H]2COC[C@@H]2NC(=O)CN(C(=O)Cn2cnc3c(N)ncnc32)[C@H]2COC[C@@H]2NC(=O)CN(C(=O)Cn2cnc3c(=O)[nH]c(N)nc32)[C@H]2COC[C@@H]2NC(=O)CN(C(=O)Cn2cc(C)c(=O)[nH]c2=O)[C@H]2COC[C@@H]2NC(=O)CN(C(=O)Cn2cnc3c(=O)[nH]c(N)nc32)[C@H]2COC[C@@H]2NC(=O)CN(C(=O)Cn2cc(C)c(=O)[nH]c2=O)[C@H]2COC[C@@H]2NC(=O)CN(C(=O)Cn2cnc3c(N)ncnc32)[C@H]2COC[C@@H]2NC(=O)CN(C(=O)Cn2cnc3c(=O)[nH]c(N)nc32)[C@H]2COC[C@@H]2N)c(=O)[nH]c1=O — ΔTm (mismatched RNA TU; duplex formation, UV melting; reference: complementary RNA): -18.2 °C
CC(C)Oc1cc(Cl)ccc1CNc1cc(-c2ccccc2)nc2ncnn12 — cAMP luminescence (endogenous β-adrenergic receptors; cAMP level, cAMP GloSensor; mock-transfected cells; 300 nM, together with: isoprenaline 30 nM; higher = more cAMP): 23200 a.u. and 28800 a.u. and 26100 a.u.
Nc1ncc(-c2cc(-c3cnn(CC(F)(F)F)c3)ncc2F)nc1C(=O)NC1CNCC(F)C1 (stereo not shown) — remaining binding (TLK1; KINOMEscan; 1 µM; reference: DMSO control): 56%
C[n+]1cc(/C=N/NC(=O)c2cncc(C(=O)N/N=C/c3cc4ccccc4[n+](C)c3)n2)cc2ccccc21 — ΔTm (22CTA telomeric G4-DNA antiparallel; FRET melting; 1 µM, K10 buffer, DNA 0.2 µM): 9 ± 0.1 °C
O=C(CCCc1cn(C[C@H]2O[C@@H]3O[C@H]4[C@H](O)[C@@H](O)[C@@H](O[C@H]5[C@H](O)[C@@H](O)[C@@H](O[C@H]6[C@H](O)[C@@H](O)[C@@H](O[C@H]7[C@H](O)[C@@H](O)[C@@H](O[C@H]8[C@H](O)[C@@H](O)[C@@H](O[C@H]9[C@H](O)[C@@H](O)[C@@H](O[C@H]2[C@H](O)[C@H]3O)O[C@@H]9Cn2cc(CCCC(=O)N[C@H]3CCOC3=O)nn2)O[C@@H]8Cn2cc(CCCC(=O)N[C@H]3CCOC3=O)nn2)O[C@@H]7Cn2cc(CCCC(=O)N[C@H]3CCOC3=O)nn2)O[C@@H]6Cn2cc(CCCC(=O)N[C@H]3CCOC3=O)nn2)O[C@@H]5Cn2cc(CCCC(=O)N[C@H]3CCOC3=O)nn2)O[C@@H]4Cn2cc(CCCC(=O)N[C@H]3CCOC3=O)nn2)nn1)N[C@H]1CCOC1=O — EC50 (LuxR; bioluminescence induction, agonist; Escherichia coli, DH5α sensor strain): 64 µM
O=C(N/N=C/c1cc[n+](Cc2ccccc2)c2ccccc12)c1cccc(C(=O)N/N=C/c2cc[n+](Cc3ccccc3)c3ccccc23)n1 — ΔTm (22CTA telomeric G4-DNA antiparallel; FRET melting; 1 µM, K10 buffer, DNA 0.2 µM, together with: ds26 10 µM): 16.4 ± 0.4 °C
O=c1c(Oc2ccccc2)c(C(F)(F)F)oc2c(O)c(O)ccc12 — Cdc34b-ubiquitin remaining (ROC1-CUL1 E3 subcomplex; Cdc34-ubiquitin discharge; 10 µM; reference: input): 2%
C=CC(=O)N1[C@@H](c2ccc3c(c2)OCO3)c2[nH]c3ccccc3c2C[C@H]1C(=O)N1CCN(C)CC1 — relative co-enrichment (human cyclin E1 N112C-3xFLAG:CDK2; co-IP with TMT proteomics, item: KPNA2; concentration not given, P52292; reference: wild type DMSO): 107%
O=c1c(-c2cnn(-c3ccc(Cl)cc3)c2)c(C(F)(F)F)oc2c(O)c(O)ccc12 — di-ubiquitin formed (ROC1-CUL1 E3 subcomplex; di-ubiquitin synthesis; 75 µM; reference: input): 61%
C[n+]1ccc(/C=N/NC(=O)c2cccc(C(=O)N/N=C/c3cc[n+](C)c4ccccc34)n2)c2ccccc21 — ΔTm (22CTA telomeric G4-DNA antiparallel; FRET melting; 1 µM, K10 buffer, DNA 0.2 µM): 20.9 ± 0.1 °C
c1ccc(-c2n[nH]cc2-c2ccnc3ccccc23)nc1 — log2 fold change (KSP1 (Candida albicans); kinase binding, MIB/MS competition; Candida albicans lysate; 10 µM; reference: DMSO): -0.14
O=C(N/N=C/c1cc[n+](Cc2ccccc2)c2ccccc12)c1ccc2ccc(C(=O)N/N=C/c3cc[n+](Cc4ccccc4)c4ccccc34)nc2n1 — ΔTm (22CTA telomeric G4-DNA antiparallel; FRET melting; 1 µM, K10 buffer, DNA 0.2 µM, together with: ds26 10 µM): 16.8 ± 0.6 °C
OC[C@H]1O[C@@H]2O[C@H]3[C@H](O)[C@@H](O)[C@@H](O[C@H]4[C@H](O)[C@@H](O)[C@@H](O[C@H]5[C@H](O)[C@@H](O)[C@@H](O[C@H]6[C@H](O)[C@@H](O)[C@@H](O[C@H]7[C@H](O)[C@@H](O)[C@@H](O[C@H]1[C@H](O)[C@H]2O)O[C@@H]7CO)O[C@@H]6CO)O[C@@H]5CO)O[C@@H]4CO)O[C@@H]3CO — bioluminescence induction (LuxR; Escherichia coli sensor; 4 µM; higher = stronger induction): 821 ± 90 RLU
O=C(N/N=C/c1cc[n+](Cc2ccccc2)c2ccccc12)C(=O)N/N=C/c1cc[n+](Cc2ccccc2)c2ccccc12 — ΔTm (22CTA telomeric G4-DNA antiparallel; FRET melting; 1 µM, K10 buffer, DNA 0.2 µM): 8.9 ± 0.9 °C
Cn1ccc2cc(-n3c(=O)[nH]c4sc5c(c4c3=O)CCCC5)ccc21 — inhibition (NMDA receptor rat; binding, radioligand binding; 10 µM, glutamate agonist site): -10%

Repeated from above:
CC(C)Oc1cc(Cl)ccc1CNc1cc(-c2ccccc2)nc2ncnn12 — cAMP luminescence (endogenous β-adrenergic receptors; cAMP level, cAMP GloSensor; mock-transfected cells; 300 nM, together with: isoprenaline 30 nM; higher = more cAMP): 23200 a.u. and 28800 a.u. and 26100 a.u.
